Measured values collected from several papers.
Protocols differ between the studies behind these lines. ± gives the spread as reported.
UniProt O08914, sequence (whole entry, looked up): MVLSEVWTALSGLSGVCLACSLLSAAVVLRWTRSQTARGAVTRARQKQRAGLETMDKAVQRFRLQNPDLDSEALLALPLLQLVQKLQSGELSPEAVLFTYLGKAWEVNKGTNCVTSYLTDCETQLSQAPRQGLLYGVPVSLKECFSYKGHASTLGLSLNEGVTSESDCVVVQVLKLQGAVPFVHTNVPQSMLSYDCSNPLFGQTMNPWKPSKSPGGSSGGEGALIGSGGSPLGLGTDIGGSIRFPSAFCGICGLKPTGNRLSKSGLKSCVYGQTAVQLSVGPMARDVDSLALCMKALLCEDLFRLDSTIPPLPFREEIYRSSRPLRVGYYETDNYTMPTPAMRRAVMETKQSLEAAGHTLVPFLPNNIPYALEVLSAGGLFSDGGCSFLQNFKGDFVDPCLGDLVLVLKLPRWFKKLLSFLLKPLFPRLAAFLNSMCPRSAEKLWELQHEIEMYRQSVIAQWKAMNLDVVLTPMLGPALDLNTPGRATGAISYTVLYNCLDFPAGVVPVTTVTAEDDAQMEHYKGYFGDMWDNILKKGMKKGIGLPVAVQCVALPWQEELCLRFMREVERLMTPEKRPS
UniProt P12390, sequence (whole entry, looked up): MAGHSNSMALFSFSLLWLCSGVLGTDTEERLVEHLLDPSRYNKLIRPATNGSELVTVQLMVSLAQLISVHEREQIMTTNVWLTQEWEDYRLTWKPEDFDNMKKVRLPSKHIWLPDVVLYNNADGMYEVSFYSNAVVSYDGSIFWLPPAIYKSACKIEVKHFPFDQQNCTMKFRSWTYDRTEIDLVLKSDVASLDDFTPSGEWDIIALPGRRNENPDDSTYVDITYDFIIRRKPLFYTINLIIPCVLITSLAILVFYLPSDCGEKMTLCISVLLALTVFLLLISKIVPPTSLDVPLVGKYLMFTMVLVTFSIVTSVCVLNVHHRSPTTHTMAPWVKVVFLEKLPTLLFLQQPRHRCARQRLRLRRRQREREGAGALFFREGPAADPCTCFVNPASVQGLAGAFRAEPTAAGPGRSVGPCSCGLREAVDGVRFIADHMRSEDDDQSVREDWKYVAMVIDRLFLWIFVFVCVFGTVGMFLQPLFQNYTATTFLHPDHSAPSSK
UniProt Q99250, sequence (whole entry, looked up): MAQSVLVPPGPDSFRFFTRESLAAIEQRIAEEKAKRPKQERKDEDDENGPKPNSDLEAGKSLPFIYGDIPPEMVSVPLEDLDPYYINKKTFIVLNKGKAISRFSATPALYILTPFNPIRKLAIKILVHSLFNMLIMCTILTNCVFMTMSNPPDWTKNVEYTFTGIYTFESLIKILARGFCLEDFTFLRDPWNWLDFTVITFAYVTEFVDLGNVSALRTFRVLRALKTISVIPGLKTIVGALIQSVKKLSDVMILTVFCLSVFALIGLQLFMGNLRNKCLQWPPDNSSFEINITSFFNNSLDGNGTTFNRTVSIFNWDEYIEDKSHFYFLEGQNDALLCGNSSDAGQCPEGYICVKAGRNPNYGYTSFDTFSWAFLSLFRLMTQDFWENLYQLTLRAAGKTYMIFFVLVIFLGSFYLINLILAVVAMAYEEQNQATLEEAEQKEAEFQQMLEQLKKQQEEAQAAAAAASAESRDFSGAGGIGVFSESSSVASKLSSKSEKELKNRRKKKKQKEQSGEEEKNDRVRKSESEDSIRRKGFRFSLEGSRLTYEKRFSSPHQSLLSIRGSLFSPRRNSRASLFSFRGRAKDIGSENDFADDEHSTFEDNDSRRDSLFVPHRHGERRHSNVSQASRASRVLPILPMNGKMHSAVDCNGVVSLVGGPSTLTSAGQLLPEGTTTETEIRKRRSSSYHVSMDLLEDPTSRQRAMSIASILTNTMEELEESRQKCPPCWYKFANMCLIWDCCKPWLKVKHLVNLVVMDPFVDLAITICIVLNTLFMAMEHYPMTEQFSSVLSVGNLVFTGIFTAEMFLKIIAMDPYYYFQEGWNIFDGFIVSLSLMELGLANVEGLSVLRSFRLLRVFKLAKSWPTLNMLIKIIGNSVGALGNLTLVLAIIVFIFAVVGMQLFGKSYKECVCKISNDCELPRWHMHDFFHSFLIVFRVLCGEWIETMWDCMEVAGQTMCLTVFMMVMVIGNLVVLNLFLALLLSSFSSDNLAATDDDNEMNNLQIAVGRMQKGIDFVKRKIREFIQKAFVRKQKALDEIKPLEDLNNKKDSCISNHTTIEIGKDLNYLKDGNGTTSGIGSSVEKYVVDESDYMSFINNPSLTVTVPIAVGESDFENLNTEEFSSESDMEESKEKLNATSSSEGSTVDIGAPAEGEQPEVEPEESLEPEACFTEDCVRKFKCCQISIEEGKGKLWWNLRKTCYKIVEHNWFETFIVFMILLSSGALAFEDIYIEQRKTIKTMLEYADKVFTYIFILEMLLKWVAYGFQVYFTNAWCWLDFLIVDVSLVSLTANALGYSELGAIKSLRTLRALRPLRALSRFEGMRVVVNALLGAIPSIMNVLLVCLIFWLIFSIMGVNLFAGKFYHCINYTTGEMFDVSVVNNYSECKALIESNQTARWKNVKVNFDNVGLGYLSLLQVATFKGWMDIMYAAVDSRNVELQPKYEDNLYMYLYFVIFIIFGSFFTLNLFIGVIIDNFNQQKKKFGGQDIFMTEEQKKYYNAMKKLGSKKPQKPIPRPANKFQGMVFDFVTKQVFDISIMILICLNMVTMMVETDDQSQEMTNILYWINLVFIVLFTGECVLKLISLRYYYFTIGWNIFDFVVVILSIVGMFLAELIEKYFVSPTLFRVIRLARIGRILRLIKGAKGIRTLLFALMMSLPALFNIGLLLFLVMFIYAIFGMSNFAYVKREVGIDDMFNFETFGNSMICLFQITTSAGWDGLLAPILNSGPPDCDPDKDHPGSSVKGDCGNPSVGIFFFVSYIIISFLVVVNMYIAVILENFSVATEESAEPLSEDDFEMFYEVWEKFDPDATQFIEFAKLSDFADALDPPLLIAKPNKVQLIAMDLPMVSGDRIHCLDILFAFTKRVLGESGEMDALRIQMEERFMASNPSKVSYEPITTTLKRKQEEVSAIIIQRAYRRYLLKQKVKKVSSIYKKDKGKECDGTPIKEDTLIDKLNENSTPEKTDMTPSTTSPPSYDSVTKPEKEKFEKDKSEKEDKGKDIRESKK
UniProt O60678, sequence (whole entry, looked up): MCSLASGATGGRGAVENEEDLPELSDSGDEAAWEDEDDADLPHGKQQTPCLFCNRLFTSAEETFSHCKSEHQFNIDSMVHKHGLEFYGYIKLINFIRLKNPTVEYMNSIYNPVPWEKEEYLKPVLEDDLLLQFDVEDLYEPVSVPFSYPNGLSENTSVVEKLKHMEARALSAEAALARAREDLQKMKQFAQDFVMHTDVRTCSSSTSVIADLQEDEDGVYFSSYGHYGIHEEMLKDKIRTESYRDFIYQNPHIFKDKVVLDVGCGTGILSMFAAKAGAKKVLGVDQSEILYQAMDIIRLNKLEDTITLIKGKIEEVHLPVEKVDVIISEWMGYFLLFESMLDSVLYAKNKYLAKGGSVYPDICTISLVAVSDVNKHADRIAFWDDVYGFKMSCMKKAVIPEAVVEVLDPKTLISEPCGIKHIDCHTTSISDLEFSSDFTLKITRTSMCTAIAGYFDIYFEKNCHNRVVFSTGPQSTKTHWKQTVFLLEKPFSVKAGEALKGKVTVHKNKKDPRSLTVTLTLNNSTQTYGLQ
UniProt P28072, sequence (whole entry, looked up): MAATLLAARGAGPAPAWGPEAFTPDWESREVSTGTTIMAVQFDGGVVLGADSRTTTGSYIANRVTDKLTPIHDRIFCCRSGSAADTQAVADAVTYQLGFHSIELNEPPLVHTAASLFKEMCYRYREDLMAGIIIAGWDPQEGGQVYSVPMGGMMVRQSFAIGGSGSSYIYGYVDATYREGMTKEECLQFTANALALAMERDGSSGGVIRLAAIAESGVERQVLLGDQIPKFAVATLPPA
UniProt P07237, sequence (whole entry, looked up): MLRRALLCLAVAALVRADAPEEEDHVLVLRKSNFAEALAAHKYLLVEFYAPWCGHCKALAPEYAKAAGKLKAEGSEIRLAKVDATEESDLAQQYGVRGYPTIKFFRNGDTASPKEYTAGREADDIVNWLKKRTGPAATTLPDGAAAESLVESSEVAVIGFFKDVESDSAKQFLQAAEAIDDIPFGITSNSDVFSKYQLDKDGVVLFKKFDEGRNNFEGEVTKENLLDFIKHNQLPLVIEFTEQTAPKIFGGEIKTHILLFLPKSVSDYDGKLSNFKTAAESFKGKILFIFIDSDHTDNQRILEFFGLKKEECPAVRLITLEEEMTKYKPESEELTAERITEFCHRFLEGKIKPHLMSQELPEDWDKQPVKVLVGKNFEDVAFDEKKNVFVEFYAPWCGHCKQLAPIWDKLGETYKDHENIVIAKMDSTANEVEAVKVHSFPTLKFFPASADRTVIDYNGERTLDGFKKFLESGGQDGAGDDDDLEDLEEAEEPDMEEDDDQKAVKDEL
UniProt P81908, sequence (whole entry, looked up): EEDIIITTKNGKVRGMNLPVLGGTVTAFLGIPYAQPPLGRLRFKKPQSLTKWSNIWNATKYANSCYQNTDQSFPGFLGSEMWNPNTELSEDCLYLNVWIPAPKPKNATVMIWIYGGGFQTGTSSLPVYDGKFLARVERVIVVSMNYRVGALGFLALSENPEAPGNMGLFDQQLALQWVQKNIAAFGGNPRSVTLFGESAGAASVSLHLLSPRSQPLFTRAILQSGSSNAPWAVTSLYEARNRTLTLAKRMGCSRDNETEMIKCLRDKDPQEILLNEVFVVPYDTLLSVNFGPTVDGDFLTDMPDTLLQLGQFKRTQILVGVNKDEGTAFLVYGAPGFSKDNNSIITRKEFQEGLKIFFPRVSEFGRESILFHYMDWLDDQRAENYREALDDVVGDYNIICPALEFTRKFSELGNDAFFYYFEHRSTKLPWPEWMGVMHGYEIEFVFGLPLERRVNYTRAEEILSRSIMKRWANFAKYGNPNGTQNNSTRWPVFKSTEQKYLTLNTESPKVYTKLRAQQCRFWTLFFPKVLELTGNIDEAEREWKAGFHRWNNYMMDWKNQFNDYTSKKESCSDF

CC(C)(O/N=C(\C(=O)N[C@@H]1C(=O)N2C(C(=O)[O-])=C(C[n+]3ccccc3)CS[C@H]12)c1csc(N)n1)C(=O)O — IC50 (dacC (Pseudomonas aeruginosa, UniProt G3XD74); binding, Bocillin FL competition; Pseudomonas aeruginosa 1771 membranes; PBP 5, together with: Bocillin FL 100 µM): > 45700 nM
CN1C(=O)[C@]23SS[C@@]1(C)C(=O)N2[C@H]1Nc2ccccc2[C@@]1([C@@]12c4ccccc4N[C@@H]1N1C(=O)[C@@]4(C)SS[C@]1(C(=O)N4C)[C@H]2O)[C@@H]3O — IC50 (PRMT3 (Homo sapiens, UniProt O60678); methyltransferase activity, inhibitor; together with: 1 µM [3H]SAM): > 10000 nM
CC(C)[C@H](NC(=O)N[C@H](C(=O)N[C@H]1/C=C/CCNC(=O)/C=C/[C@H](C(C)C)NC1=O)C(C)C)C(=O)O — IC50 (PSMB6 (Homo sapiens, UniProt P28072); active site labelling, inhibitor, probe competition gel; HEK-293T cell lysate; 1 h, 37 °C, together with: activity-based probe 0.5 µM): 25000 nM
Cc1ncccc1OC(=O)NCCCCCn1ccc2ccc(F)cc21 — IC50 (Cholinesterase (BCHE, Equus caballus, UniProt P81908); enzyme activity, inhibitor, HPLC): 400 nM
O=C1Nc2ccc3ncsc3c2/C1=C/Nc1ccc(S(=O)(=O)Nc2ccccn2)cc1 — IC50 (Putative glycogen synthase kinase (Leishmania major, UniProt Q4QE15, D105E/Y102F); enzyme activity, inhibitor; 90 min, 30 °C, together with: ATP 2 µM): 30 nM
N[C@@H](Cn1cc(I)c(=O)[nH]c1=O)C(=O)O — IC50 (Glutamate receptor 3, S1S2 ligand-binding domain (Rattus norvegicus, UniProt P19492, del531-655/S657T/V656G)): 790 ± 140 nM
CC/C(=C(\c1ccc(O)cc1)c1ccc(OCCN(C)C)cc1)c1ccccc1 — IC50 (SCN2A (Homo sapiens, UniProt Q99250); ion current, inhibitor, patch clamp): 1200 nM
[Cd+2] — IC50 (Trpv1 (Rattus norvegicus, UniProt O35433); transporter uptake, inhibitor, radiometric): 38000 nM
CCc1c(C(=O)C(N)=O)c2c(OCC(=O)O)cccc2n1Cc1ccccc1 — IC50 (PLA2G5 (Homo sapiens, UniProt P39877); enzyme activity, LC-MS mixed micelle, measured: total arachidonic acid released; together with: mixed arachidonoyl phospholipids): 600 nM
Cn1c(=O)[nH]c2nncnc2c1=O — IC50 (P4HB (Homo sapiens, UniProt P07237); enzyme activity, inhibitor, absorbance): > 120000 nM
O=C(O)c1ccccc1Nc1ccc(Cc2ccccc2)cc1 — IC50 (Androgen receptor (AR, Homo sapiens, UniProt P10275); reporter gene, antagonist, MMTV-Luc reporter; MDA-kb2; 20 h, together with: 0.2 nM DHT (EC50)): 2200 ± 1000 nM
c1cncc(OC[C@@H]2CCCN2)c1 — IC50 (Neuronal acetylcholine receptor; alpha4/beta2 (Rattus norvegicus, UniProt P09483+P12390); ligand displacement, radioligand; cell membranes): 2.51 nM
O=C(OC(C(F)(F)F)C(F)(F)F)N1CCC(C(O)(c2ccc3c(c2)OCO3)c2ccc3c(c2)OCO3)CC1 — IC50 (Faah (Mus musculus, UniProt O08914); competitive ABPP; mouse brain membrane proteome): > 50000 nM
O=C1Nc2ccc3ncsc3c2/C1=C/c1cnc[nH]1 — IC50 (STK24 (Homo sapiens, UniProt Q9Y6E0); enzyme activity, inhibitor, radiometric): 20 nM
COc1ccc(NC(=O)N2CCCCN3[C@H](CN4CCC4)[C@H](c4ccc(C#Cc5ccccc5)cc4)[C@@H]3C2)cc1 — IC50 (Phenylalanine--tRNA ligase alpha subunit (Plasmodium falciparum, UniProt Q8I246); aminoacylation activity, inhibitor): 162 nM
O=C1NCc2c1c1c3ccccc3[nH]c1c1[nH]c3ccccc3c21 — IC50 (ERRα (human); reporter gene, antagonist, luciferase reporter qHTS): 2660 nM
CCCCCCCC(=O)SCC/C=C/[C@@H]1CC(=O)NCc2nc(cs2)C2=N[C@@](C)(CS2)C(=O)N[C@@H](C(C)C)C(=O)N1 — IC50 (HDAC6 (Homo sapiens, UniProt Q9UBN7); enzyme activity, inhibitor, fluorescence): > 3000 nM

Some of these lines once more:
CC/C(=C(\c1ccc(O)cc1)c1ccc(OCCN(C)C)cc1)c1ccccc1 — IC50 (SCN2A (Homo sapiens, UniProt Q99250); ion current, inhibitor, patch clamp): 1200 nM
CC(C)[C@H](NC(=O)N[C@H](C(=O)N[C@H]1/C=C/CCNC(=O)/C=C/[C@H](C(C)C)NC1=O)C(C)C)C(=O)O — IC50 (PSMB6 (Homo sapiens, UniProt P28072); active site labelling, inhibitor, probe competition gel; HEK-293T cell lysate; 1 h, 37 °C, together with: activity-based probe 0.5 µM): 25000 nM
CCc1c(C(=O)C(N)=O)c2c(OCC(=O)O)cccc2n1Cc1ccccc1 — IC50 (PLA2G5 (Homo sapiens, UniProt P39877); enzyme activity, LC-MS mixed micelle, measured: total arachidonic acid released; together with: mixed arachidonoyl phospholipids): 600 nM
